Published values pooled from the literature.
Protocols differ between the studies behind these lines.

Structure (SMILES)	assay	system	conditions	scale	adverse event incidence
CC(C)n1c(Nc2cccnc2)nc2cnc(Nc3ccc(N4CCN(C)CC4)cc3)nc21	refers to: Hypertriglyceridaemia	healthy male subjects	oral, 100 mg, added: gemfibrozil		0%
CC[C@H](C)[C@H](NC(=O)[C@H](Cc1ccccc1)NC(=O)[C@H](CCC(=O)O)NC(=O)[C@H](CCCCNC(=O)COCCOCCNC(=O)COCCOCCNC(=O)CC[C@H](NC(=O)CCCCCCCCCCCCCCCCC(=O)O)C(=O)O)NC(=O)[C@H](C)NC(=O)[C@H](C)NC(=O)[C@H](CCC(N)=O)NC(=O)CNC(=O)[C@H](CCC(=O)O)NC(=O)[C@H](CC(C)C)NC(=O)[C@H](Cc1ccc(O)cc1)NC(=O)[C@H](CO)NC(=O)[C@H](CO)NC(=O)[C@@H](NC(=O)[C@H](CC(=O)O)NC(=O)[C@H](CO)NC(=O)[C@@H](NC(=O)[C@H](Cc1ccccc1)NC(=O)[C@@H](NC(=O)CNC(=O)[C@H](CCC(=O)O)NC(=O)C(C)(C)NC(=O)[C@@H](N)Cc1cnc[nH]1)[C@@H](C)O)[C@@H](C)O)C(C)C)C(=O)N[C@@H](C)C(=O)N[C@@H](Cc1c[nH]c2ccccc12)C(=O)N[C@@H](CC(C)C)C(=O)N[C@H](C(=O)N[C@@H](CCCNC(=N)N)C(=O)NCC(=O)N[C@@H](CCCNC(=N)N)C(=O)NCC(=O)O)C(C)C	refers to: Diarrhoea	type 2 diabetes patients	dose not given	relative to: subjects	20%
CC(=O)O[C@H]1C(=O)[C@@]2(C)[C@H]([C@H](OC(=O)c3ccccc3)[C@]3(O)C[C@H](OC(=O)[C@H](O)[C@@H](NC(=O)c4ccccc4)c4ccccc4)C(C)=C1C3(C)C)[C@]1(OC(C)=O)CO[C@@H]1C[C@@H]2O	refers to: Pyrexia	patients with advanced solid tumours	intravenous, dose not given, all grades, possibly related to drug		13%
CC[C@H](C)CCCCC(=O)N[C@@H](CCN)C(=O)N[C@H](C(=O)N[C@@H](CCN)C(=O)N[C@H]1CCNC(=O)[C@H]([C@@H](C)O)NC(=O)[C@H](CCN)NC(=O)[C@H](CCN)NC(=O)[C@H](CC(C)C)NC(=O)[C@@H](Cc2ccccc2)NC(=O)[C@H](CCN)NC1=O)[C@@H](C)O	refers to: infections and infestations	normal renal function	intravenous, 0.75 mg/kg		0%
O=C1CCc2ccc(OCCCCN3CCN(c4cccc(Cl)c4Cl)CC3)cc2N1	refers to: Akathisia	patients, CYP2D6 ultrarapid metabolizers	dose not given, long-acting oral or depot		13%
NCCONC(=O)[C@@H]1CC[C@@H]2CN1C(=O)N2OS(=O)(=O)O	refers to: Mild severity	healthy Chinese men	intravenous, 1 g, treatment-related		37.5%
Cc1c(C(=O)O)ccc2c3n(nc12)[C@@H]1[C@H](C3)N(CC2CC2)[C@@]2(C(=O)Nc3cc(Cl)ccc32)[C@H]1c1cccc(Cl)c1F	phase Ia trial, refers to: Constipation	cancer patients	oral, dose not given		24%
Cc1ccc(Sc2ccccc2N2CCNCC2)c(C)c1	any TEAE	healthy adult men	oral, 20 mg single dose, 10 days		16.7%
